Results of several laboratories.
Numbered parts are unrelated; each lists some results of a single study. Several values in a cell are separate wells, animals, samples, runs or records.
Chain of UniProt Q13976 (whole entry, looked up): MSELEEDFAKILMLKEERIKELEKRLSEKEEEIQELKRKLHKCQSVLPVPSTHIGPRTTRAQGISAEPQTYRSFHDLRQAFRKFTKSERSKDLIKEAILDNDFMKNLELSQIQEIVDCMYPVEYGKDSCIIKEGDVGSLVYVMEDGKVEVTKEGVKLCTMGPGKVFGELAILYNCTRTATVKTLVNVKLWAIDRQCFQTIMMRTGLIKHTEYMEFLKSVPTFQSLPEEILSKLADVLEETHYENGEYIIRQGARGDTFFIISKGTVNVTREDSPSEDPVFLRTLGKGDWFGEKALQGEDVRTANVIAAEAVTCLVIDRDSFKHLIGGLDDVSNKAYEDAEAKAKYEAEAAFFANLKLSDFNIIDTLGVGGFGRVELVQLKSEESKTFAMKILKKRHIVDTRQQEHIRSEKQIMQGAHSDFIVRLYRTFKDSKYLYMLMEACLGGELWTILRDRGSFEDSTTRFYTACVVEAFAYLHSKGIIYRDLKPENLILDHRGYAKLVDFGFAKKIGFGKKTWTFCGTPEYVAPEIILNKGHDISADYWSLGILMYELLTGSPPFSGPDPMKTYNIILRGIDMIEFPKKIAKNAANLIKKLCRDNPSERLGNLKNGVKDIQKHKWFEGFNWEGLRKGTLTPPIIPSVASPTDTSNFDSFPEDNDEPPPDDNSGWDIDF
Chain of UniProt P06493 (whole entry, looked up): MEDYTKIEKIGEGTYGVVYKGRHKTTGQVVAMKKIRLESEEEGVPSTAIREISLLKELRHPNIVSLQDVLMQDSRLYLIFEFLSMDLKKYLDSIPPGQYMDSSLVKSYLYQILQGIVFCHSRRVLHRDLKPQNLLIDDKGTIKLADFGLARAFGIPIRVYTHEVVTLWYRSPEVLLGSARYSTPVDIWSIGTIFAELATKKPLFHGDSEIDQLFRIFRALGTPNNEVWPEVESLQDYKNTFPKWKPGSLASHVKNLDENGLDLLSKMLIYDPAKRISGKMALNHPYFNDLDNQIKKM
Chain of UniProt P07948 (whole entry, looked up): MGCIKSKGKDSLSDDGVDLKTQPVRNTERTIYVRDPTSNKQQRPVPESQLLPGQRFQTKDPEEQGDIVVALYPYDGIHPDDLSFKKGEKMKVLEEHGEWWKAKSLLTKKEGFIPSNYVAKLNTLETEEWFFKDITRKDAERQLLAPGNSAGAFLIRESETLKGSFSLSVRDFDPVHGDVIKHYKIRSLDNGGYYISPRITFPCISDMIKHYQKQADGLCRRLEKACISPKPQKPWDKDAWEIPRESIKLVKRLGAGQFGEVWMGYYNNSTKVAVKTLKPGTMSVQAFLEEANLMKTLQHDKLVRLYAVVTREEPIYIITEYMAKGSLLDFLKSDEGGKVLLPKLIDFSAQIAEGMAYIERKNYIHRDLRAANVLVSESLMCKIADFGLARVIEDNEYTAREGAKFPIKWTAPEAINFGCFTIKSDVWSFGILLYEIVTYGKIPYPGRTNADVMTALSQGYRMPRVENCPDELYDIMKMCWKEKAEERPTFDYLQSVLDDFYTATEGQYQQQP
Chain of UniProt P35626 (whole entry, looked up): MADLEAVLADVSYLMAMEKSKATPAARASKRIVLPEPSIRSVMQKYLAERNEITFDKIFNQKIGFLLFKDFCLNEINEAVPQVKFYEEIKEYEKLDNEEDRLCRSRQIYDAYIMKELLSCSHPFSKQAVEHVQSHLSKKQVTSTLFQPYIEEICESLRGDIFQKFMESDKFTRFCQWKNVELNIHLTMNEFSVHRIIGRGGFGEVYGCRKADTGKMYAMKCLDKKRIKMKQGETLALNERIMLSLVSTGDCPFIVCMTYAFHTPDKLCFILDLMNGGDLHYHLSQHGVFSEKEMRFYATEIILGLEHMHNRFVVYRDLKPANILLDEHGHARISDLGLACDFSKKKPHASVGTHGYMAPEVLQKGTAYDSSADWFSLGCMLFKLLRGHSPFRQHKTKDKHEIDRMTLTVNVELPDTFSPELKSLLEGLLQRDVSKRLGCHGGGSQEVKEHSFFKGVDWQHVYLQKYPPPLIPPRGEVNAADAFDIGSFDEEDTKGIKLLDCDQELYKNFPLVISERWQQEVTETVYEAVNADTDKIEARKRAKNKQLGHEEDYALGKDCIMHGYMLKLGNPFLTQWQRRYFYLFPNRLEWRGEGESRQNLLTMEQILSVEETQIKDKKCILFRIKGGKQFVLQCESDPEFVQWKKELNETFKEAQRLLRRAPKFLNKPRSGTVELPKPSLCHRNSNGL
Chain of UniProt Q6P2M8 (whole entry, looked up): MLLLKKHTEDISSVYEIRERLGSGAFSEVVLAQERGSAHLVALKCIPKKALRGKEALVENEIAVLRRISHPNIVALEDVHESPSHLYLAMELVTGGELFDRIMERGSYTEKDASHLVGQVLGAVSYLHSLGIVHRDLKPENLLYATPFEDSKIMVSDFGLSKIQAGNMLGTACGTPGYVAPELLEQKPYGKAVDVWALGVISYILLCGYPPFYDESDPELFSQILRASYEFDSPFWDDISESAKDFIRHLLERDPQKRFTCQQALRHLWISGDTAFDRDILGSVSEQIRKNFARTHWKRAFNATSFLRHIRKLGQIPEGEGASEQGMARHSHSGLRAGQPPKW
Chain of UniProt P05771 (whole entry, looked up): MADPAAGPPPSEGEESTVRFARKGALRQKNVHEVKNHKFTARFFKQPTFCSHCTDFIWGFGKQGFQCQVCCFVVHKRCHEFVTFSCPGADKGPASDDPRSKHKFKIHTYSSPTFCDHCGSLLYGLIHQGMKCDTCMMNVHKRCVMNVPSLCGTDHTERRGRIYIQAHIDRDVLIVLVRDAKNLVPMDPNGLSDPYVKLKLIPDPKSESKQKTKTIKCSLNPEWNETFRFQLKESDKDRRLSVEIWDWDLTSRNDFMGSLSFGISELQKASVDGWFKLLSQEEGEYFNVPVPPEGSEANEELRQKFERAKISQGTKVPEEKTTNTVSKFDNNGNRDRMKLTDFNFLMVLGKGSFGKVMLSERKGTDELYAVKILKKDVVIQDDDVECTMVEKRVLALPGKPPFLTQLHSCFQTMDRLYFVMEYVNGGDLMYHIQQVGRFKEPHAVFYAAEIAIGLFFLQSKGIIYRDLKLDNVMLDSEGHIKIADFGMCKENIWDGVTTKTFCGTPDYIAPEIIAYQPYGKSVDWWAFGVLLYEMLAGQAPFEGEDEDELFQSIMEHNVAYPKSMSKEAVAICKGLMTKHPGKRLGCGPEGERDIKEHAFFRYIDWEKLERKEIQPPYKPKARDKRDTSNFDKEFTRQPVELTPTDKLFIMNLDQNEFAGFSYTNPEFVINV

Block 1 — organism: Sarcocystis neurona; observed: parasite activity; concentration: concentration not given
SMILES	activity class
CCCCCCCCCOc1ccc2[nH]cc(CCN)c2c1	inactive
C[C@]12CC[C@H]3[C@@H](CCC4=CC(=O)CC[C@@H]43)[C@@H]1CC[C@@H]2O	inactive
OC[C@H]1O[C@@H](n2cnc3c(N[C@H]4CCC[C@@H]4O)ncnc32)[C@H](O)[C@@H]1O	inactive
COc1ccc2[nH]cc(CCN)c2c1	inactive
C=C(C)CN1CC[C@]23c4c5ccc(O)c4O[C@H]2c2[nH]c4ccccc4c2C[C@@]3(O)C1C5.Cl.O	inactive
Br.COc1ccc2c(c1)[C@]13CCCC[C@@H]1[C@H](C2)N(C)CC3	inactive
CNC(=O)Oc1ccc2c(c1)[C@]1(C)CCN(C)[C@@H]1N2C.CNC(=O)Oc1ccc2c(c1)[C@]1(C)CCN(C)[C@@H]1N2C.O=S(=O)(O)O	inactive
CCC(COC(=O)c1cc(OC)c(OC)c(OC)c1)(c1ccccc1)N(C)C.O=C(O)/C=C\C(=O)O (stereo not shown)	inactive
COC(=O)N1CCN(C(=O)Cc2ccc(Cl)c(Cl)c2)C(CN2CCCC2)C1.O=C(O)/C=C/C(=O)O (stereo not shown)	inactive
CN1CC[C@@H](c2ccc(F)cc2)[C@H](COc2ccc3c(c2)OCO3)C1	inactive
COc1ccc2[nH]cc(C3=CCNCC3)c2c1	inactive
Cl.OC1CCCCC1N1CCC(c2ccccc2)CC1 (racemic)	inactive
COc1cc(N)c(Cl)cc1C(=O)NC1CN2CCC1CC2.Cl (stereo not shown)	inactive

Block 2 — cell line: HEK-293T-ACE2-TMPRSS2; technique: cell count; concentration: concentration not given
Structure (SMILES)	viability [%]
Cc1cc(NC(=O)C2CCN(c3ncnc4onc(C)c34)CC2)no1	70
CC(Oc1ccc(-n2cnc(-c3ccccc3)c2)cc1)C(N)=O (stereo not shown)	68
CN1CCN(Cc2c(O)c(Cl)cc3c4c(c(=O)oc23)CCC4)CC1	66
COc1ccc(C(CC(=O)N2CCN(c3cnccn3)CC2)c2ccccc2)cc1 (stereo not shown)	72
Cc1ccc2[nH]c(CCc3cccc(NC(=O)C4CCCN(S(=O)(=O)N5CCCC5)C4)c3)nc2c1 (stereo not shown)	75
Cc1oc2ncnc(N3CCC(C(=O)NC4CCCCCCC4)CC3)c2c1C	68
Cc1ccc(C(=O)N(CCCN)[C@@H](c2oc3cc(Cl)ccc3c(=O)c2Cc2ccccc2)C(C)C)cc1	93
O=C(NCC1(c2ccccc2)CCCC1)C(=O)Nc1cccc(Br)c1	70

Block 3 — organism: Leishmania donovani; strain: DD8 resistant line
Compound: CCCCCCCCCCCCCCCCOP(=O)([O-])OCC[N+](C)(C)C
system	conditions	inhibition
THP-1 intracellular amastigotes	20 µM, resistance confirmation	91% and 92%
promastigotes	16.66 µM, after drug pressure removed	2% and 1%
THP-1 intracellular amastigotes	40 µM, resistance confirmation	100%

Block 4 — SMILES: CC(C)(C)c1cc(C=C(C#N)C#N)cc(Br)c1O; observed: enzyme activity; action: inhibitor; concentration: 0.5 µM
target	scale	remaining activity
cGMP-dependent protein kinase 1, isoform beta (PRKG1, Homo sapiens, UniProt Q13976)	relative to: control	107%
G protein-coupled receptor kinase 3 (GRK3, Homo sapiens, UniProt P35626)		98%
cAMP-dependent protein kinase catalytic subunit alpha (PRKACA, Homo sapiens, UniProt P17612)	relative to: control	102%
Cyclin-dependent kinase 1, with cyclin A (CDK1, Homo sapiens, UniProt P06493)		87.8%
Protein kinase C beta type, isoform beta-I (PRKCB, Homo sapiens, UniProt P05771)	relative to: control	102%
Tyrosine-protein kinase Lyn, isoform B (LYN, Homo sapiens, UniProt P07948)	relative to: control	113%
Calcium/calmodulin-dependent protein kinase type 1B (PNCK, Homo sapiens, UniProt Q6P2M8)		107%
